Assay results of several laboratories.
A part holds a random share of what one study measured.
Sequence of UniProt P53671 (whole entry, looked up): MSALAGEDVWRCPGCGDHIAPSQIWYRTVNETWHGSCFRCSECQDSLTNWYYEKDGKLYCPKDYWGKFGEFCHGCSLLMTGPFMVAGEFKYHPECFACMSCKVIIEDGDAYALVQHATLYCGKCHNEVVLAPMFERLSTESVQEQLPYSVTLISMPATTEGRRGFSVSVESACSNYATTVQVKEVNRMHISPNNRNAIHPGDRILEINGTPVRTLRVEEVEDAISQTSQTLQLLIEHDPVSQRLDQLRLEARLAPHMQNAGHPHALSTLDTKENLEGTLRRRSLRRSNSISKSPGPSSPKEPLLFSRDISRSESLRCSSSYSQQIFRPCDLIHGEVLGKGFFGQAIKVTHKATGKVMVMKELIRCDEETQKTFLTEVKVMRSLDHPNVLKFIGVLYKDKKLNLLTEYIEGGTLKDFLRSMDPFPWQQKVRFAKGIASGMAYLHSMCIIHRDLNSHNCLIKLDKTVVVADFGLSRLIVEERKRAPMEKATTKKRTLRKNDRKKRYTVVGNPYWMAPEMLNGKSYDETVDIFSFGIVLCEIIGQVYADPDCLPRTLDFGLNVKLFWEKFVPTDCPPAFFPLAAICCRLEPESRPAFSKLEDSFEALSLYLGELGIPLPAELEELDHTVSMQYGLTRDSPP
Sequence of UniProt P15735 (whole entry, looked up): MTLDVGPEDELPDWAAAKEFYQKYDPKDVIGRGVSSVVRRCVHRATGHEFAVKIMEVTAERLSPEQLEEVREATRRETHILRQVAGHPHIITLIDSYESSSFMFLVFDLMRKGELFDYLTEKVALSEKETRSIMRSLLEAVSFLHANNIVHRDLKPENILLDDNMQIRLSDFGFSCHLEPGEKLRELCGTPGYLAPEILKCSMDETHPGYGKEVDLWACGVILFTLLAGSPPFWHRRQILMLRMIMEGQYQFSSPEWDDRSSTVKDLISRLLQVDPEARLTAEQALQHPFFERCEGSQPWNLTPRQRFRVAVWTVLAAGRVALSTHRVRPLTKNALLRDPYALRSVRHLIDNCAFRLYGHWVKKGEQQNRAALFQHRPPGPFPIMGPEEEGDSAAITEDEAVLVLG
Sequence of UniProt P08631 (whole entry, looked up): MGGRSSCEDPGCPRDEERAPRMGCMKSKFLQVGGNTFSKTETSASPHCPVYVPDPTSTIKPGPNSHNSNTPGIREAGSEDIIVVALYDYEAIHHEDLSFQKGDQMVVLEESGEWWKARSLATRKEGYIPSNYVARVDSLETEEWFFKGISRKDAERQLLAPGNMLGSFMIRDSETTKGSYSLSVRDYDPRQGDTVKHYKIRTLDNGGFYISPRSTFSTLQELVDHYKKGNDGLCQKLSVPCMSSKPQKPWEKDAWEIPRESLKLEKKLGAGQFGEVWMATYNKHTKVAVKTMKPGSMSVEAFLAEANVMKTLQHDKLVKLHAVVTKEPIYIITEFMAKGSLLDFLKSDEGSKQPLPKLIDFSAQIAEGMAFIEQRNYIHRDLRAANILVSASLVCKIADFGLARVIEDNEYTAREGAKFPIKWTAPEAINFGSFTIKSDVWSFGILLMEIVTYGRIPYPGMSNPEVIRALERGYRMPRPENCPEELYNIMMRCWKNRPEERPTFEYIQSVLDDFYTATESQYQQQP
Sequence of UniProt P53350 (whole entry, looked up): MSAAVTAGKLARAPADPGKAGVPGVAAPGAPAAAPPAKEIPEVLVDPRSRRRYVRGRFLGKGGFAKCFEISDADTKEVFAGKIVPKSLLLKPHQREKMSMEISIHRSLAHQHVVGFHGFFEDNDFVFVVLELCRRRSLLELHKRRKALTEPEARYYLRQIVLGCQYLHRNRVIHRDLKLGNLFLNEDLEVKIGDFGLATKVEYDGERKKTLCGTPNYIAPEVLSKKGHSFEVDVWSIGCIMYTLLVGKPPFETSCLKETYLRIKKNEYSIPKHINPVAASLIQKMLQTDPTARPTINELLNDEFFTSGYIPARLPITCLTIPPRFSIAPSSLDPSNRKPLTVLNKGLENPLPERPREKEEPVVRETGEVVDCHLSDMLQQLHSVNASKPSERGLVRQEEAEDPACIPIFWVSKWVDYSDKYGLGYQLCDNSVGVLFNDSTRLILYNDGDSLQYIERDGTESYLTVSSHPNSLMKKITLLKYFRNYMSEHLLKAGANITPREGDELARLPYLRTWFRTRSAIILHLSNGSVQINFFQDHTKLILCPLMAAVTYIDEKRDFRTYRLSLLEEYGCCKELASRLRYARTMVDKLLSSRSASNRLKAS
Sequence of UniProt Q96BR1 (whole entry, looked up): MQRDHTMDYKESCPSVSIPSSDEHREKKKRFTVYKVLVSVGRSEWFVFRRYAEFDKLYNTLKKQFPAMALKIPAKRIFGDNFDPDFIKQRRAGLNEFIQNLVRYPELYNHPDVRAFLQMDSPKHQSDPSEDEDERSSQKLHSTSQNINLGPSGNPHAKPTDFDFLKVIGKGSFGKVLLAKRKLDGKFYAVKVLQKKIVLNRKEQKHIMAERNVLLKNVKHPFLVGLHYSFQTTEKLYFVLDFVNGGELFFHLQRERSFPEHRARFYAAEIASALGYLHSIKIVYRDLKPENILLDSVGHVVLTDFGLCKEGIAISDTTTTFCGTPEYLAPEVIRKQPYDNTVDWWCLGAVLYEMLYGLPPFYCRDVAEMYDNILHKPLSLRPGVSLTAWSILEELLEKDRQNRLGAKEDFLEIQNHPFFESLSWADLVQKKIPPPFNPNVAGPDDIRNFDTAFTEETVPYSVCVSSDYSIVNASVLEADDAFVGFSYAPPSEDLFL
Sequence of UniProt Q7L7X3 (whole entry, looked up): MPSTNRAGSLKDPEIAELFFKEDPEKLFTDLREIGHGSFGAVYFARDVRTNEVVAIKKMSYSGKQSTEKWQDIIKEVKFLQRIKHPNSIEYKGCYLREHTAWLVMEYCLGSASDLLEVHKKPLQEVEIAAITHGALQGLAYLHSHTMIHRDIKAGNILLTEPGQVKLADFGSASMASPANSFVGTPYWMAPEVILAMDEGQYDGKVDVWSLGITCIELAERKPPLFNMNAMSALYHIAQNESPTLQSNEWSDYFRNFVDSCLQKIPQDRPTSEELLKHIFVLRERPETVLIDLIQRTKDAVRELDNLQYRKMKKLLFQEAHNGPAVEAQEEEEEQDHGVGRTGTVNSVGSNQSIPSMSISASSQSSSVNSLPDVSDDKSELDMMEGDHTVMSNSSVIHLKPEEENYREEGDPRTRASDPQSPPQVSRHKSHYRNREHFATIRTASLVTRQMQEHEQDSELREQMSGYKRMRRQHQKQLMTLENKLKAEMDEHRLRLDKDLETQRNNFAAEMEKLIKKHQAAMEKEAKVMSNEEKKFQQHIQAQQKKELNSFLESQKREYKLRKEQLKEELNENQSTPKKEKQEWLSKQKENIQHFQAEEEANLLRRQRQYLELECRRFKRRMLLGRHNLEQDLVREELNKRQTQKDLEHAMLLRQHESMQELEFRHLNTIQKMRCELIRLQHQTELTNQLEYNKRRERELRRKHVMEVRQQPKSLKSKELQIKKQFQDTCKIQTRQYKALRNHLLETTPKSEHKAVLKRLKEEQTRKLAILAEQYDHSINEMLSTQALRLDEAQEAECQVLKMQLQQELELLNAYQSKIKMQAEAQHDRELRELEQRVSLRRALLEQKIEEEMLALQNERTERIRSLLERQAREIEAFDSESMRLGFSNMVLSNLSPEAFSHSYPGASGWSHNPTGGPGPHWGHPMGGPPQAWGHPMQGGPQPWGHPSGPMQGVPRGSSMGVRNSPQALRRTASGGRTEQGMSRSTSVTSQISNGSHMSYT
Sequence of UniProt Q9HAZ1 (whole entry, looked up): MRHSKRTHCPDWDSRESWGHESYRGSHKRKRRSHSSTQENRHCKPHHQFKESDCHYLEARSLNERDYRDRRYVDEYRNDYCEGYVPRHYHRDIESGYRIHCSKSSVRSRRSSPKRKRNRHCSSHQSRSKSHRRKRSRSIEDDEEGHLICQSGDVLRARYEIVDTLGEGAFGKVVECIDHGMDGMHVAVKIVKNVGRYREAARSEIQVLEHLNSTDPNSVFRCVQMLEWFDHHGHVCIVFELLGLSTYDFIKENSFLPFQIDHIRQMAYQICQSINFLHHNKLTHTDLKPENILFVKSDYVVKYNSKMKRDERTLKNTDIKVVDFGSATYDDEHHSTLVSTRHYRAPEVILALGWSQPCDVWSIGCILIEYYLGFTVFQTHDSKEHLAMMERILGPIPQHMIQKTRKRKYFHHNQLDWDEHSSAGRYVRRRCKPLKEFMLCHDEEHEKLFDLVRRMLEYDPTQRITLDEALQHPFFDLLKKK
Sequence of UniProt Q99986 (whole entry, looked up): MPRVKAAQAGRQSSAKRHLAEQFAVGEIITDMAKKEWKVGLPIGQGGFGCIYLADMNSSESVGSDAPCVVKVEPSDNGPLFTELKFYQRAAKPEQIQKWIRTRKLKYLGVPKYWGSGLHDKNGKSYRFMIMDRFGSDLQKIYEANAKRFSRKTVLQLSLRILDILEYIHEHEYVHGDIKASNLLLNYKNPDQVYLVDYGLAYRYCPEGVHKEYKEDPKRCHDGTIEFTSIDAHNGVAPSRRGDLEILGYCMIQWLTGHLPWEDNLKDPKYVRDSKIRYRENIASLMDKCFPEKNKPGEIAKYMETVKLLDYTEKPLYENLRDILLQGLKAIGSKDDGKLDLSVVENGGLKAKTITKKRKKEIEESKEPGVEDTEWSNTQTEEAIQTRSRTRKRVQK

Block 1 — SMILES: COc1ccc(-c2cnc3c(-c4ccsc4)cnn3c2)cc1; effect on: enzyme activity; action: inhibitor; concentration: 0.5 µM; baseline: control
target	remaining activity [%]
INSRR (Homo sapiens, UniProt P14616)	98.7
PLK1 (Homo sapiens, UniProt P53350)	101
PDGFRB (Homo sapiens, UniProt P09619)	63.4
DSTYK (Homo sapiens, UniProt Q6XUX3)	97.6
RAF1 (Homo sapiens, UniProt P04049)	95.5
VRK1 (Homo sapiens, UniProt Q99986)	105
ACVR1 (Homo sapiens, UniProt Q04771)	91.1
ULK1 (Homo sapiens, UniProt O75385)	79
TNK2 (Homo sapiens, UniProt Q07912)	92.2
MAP4K5 (Homo sapiens, UniProt Q9Y4K4)	60.3
TAOK1 (Homo sapiens, UniProt Q7L7X3)	105
PRKD3 (Homo sapiens, UniProt O94806)	100
MAP3K9 (Homo sapiens, UniProt P80192)	65.6
NTRK2 (Homo sapiens, UniProt Q16620)	82.9
FGFR2 (Homo sapiens, UniProt P21802)	92.4
DYRK2 (Homo sapiens, UniProt Q92630)	71.1
RIPK2 (Homo sapiens, UniProt O43353)	56.8
HCK (Homo sapiens, UniProt P08631)	81.9
SGK3 (Homo sapiens, UniProt Q96BR1)	99.6
PHKG2 (Homo sapiens, UniProt P15735)	92.3

Block 2 — action: inhibitor; concentration: 1 µM
Structure (SMILES): CC#CC(=O)N1CCC[C@H]1c1nc(-c2ccc(C(=O)Nc3ccccn3)cc2)c2c(N)nccn12
target	assay	inhibition [%]
Non-receptor tyrosine-protein kinase TYK2, JH2 pseudokinase domain (TYK2, Homo sapiens, UniProt P29597)	–	0
Myosin-IIIb (MYO3B, Homo sapiens, UniProt Q8WXR4)	enzyme activity	12
HIPK2 (Homo sapiens, UniProt Q9H2X6)	enzyme activity	0
ROCK1 (Homo sapiens, UniProt Q13464)	enzyme activity	40
RET (Homo sapiens, UniProt P07949, V804L)	enzyme activity	22
PHKG2 (Homo sapiens, UniProt P15735)	enzyme activity	0
SGK3 (Homo sapiens, UniProt Q96BR1)	enzyme activity	0
AAK1 (Homo sapiens, UniProt Q2M2I8)	enzyme activity	0
LIM domain kinase 2 (LIMK2, Homo sapiens, UniProt P53671)	enzyme activity	0
MAP4K3 (Homo sapiens, UniProt Q8IVH8)	enzyme activity	2
CLK4 (Homo sapiens, UniProt Q9HAZ1)	enzyme activity	13
CDK19 (Homo sapiens, UniProt Q9BWU1)	–	10
BMPR1A (Homo sapiens, UniProt P36894)	enzyme activity	0
RIOK2 (Homo sapiens, UniProt Q9BVS4)	enzyme activity	26

Block 3 — method: competition with immobilised ligand; concentration: 1 µM
Structure (SMILES): C[C@H](c1ccc(F)cc1)N(Cc1cccc(C(=O)O)c1)C(=O)c1cnc2ccccc2c1
target	assay	remaining binding [%]
MAP3K4 (Homo sapiens, UniProt Q9Y6R4)	cell-free assay	100
SRPK1 (Homo sapiens, UniProt Q96SB4)	cell-free assay	95
MAP3K6 (Homo sapiens, UniProt O95382)	cell-free assay	84
TXK (Homo sapiens, UniProt P42681)	binding	100
EGFR (Homo sapiens, UniProt P00533, del746-750)	cell-free assay	100
SBK1 (Homo sapiens, UniProt Q52WX2)	cell-free assay	92
Ribosomal protein S6 kinase alpha-2, N-terminal kinase domain (RPS6KA2, Homo sapiens, UniProt Q15349)	cell-free assay	100
EPHA7 (Homo sapiens, UniProt Q15375)	cell-free assay	80
MAP3K19 (Homo sapiens, UniProt Q56UN5)	cell-free assay	72
EGFR (Homo sapiens, UniProt P00533, L858R)	cell-free assay	100
BMP2K (Homo sapiens, UniProt Q9NSY1)	cell-free assay	96
MYLK2 (Homo sapiens, UniProt Q9H1R3)	cell-free assay	100
LIM domain kinase 2 (LIMK2, Homo sapiens, UniProt P53671)	cell-free assay	100
STK36 (Homo sapiens, UniProt Q9NRP7)	cell-free assay	100
MYLK4 (Homo sapiens, UniProt Q86YV6)	cell-free assay	99
MET (Homo sapiens, UniProt P08581, Y1235D)	cell-free assay	100
CSNK1D (Homo sapiens, UniProt P48730)	cell-free assay	92
MAP3K1 (Homo sapiens, UniProt Q13233)	cell-free assay	100
HCK (Homo sapiens, UniProt P08631)	cell-free assay	88
BMPR1B (Homo sapiens, UniProt O00238)	cell-free assay	95
EGFR (Homo sapiens, UniProt P00533, T790M)	cell-free assay	100
Receptor-type tyrosine-protein kinase FLT3, autoinhibited (FLT3, Homo sapiens, UniProt P36888)	cell-free assay	100
CDK13 (Homo sapiens, UniProt Q14004)	cell-free assay	98
STK32C (Homo sapiens, UniProt Q86UX6)	cell-free assay	100
PLK1 (Homo sapiens, UniProt P53350)	cell-free assay	79

Block 4 — effect on: enzyme activity; action: inhibitor; concentration: 10 µM
Target: Calcium/calmodulin-dependent protein kinase type II subunit alpha (CAMK2A, Homo sapiens, UniProt Q9UQM7)
Sequence of UniProt Q9UQM7 (whole entry, looked up): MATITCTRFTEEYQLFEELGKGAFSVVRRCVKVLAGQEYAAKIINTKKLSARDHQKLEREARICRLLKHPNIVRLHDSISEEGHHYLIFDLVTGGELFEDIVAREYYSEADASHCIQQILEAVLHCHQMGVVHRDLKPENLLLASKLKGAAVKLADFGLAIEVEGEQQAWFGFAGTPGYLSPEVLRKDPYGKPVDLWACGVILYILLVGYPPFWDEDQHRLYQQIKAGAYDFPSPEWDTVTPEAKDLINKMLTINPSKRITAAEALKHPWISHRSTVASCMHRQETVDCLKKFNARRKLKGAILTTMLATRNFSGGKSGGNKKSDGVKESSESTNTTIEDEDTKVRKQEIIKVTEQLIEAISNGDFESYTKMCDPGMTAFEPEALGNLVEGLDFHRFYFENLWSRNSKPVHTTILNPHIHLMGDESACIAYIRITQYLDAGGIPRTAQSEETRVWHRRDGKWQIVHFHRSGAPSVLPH
SMILES	inhibition
C=CCOc1ccccc1OCC(O)CNC(C)C (stereo not shown)	-14%
NS(=O)(=O)c1cc2c(cc1Cl)N=C(CSCc1ccccc1)NS2(=O)=O	-3%
C[C@@H](O)[C@H](N)C(=O)O	16%
C[C@@H]1CC[C@H]2[C@@H](C)C(O)O[C@@H]3O[C@@]4(C)CC[C@@H]1[C@]32OO4 (stereo partly shown)	-1%
CCO[C@@H]1O[C@H](C(=O)O)[C@@H](O)[C@H](O)[C@H]1O	-30%
COc1cc(CCC(=O)O)cc(OC)c1OC	-13%
CCCCC(CC)COC(=O)CC(C(=O)OCC(CC)CCCC)S(=O)(=O)O (stereo not shown)	-14%
O=S(=O)(c1cccc2cnccc12)N1CCCNCC1	-3%

Repeated from above (block 1):
target	remaining activity [%]
SGK3 (Homo sapiens, UniProt Q96BR1)	99.6
TAOK1 (Homo sapiens, UniProt Q7L7X3)	105
MAP4K5 (Homo sapiens, UniProt Q9Y4K4)	60.3
RAF1 (Homo sapiens, UniProt P04049)	95.5
VRK1 (Homo sapiens, UniProt Q99986)	105
ULK1 (Homo sapiens, UniProt O75385)	79
PHKG2 (Homo sapiens, UniProt P15735)	92.3
TNK2 (Homo sapiens, UniProt Q07912)	92.2
